Measurements collected from several papers.
Protocols differ between the studies behind these lines. ± marks the error that the study gave.
Organism: Salmonella typhimurium

SMILES	test	test system	conditions	scale	measurement	result
COc1cccc(-c2n[nH]c(SCc3ccccn3)n2)c1OC	Ames test, plate incorporation	TA1535	1.0 mg/plate, without S9	–	revertant colonies per plate	14
CNC(=O)c1c(N(C)N=O)ncn1C	mutagenicity, Ames plate incorporation	TA1535	5000 µg/plate, without S9, methanol	–	revertant colonies per plate	25.3 ± 2
N#C[C@@]1(n2ccc(N)nc2=O)O[C@H](CO)[C@@H](O)[C@H]1O	–	TA98	1.2 µM, without S9	–	viability	94%
O=[N+]([O-])c1ccc(N2CCN(CCC(O)c3ccc(F)cc3)CC2)c(C(F)(F)F)c1 (stereo not drawn)	genotoxicity, SOS/umu test	TA1535/pSK1002	0.008 mg/mL, 4 h, with S9, full range	–	induction factor	1.2
COCCN(CCOC)N=O	mutagenicity, Ames plate incorporation	TA1535	5000 µg/plate, 3 d, without S9, methanol	–	revertant colonies per plate	21.3 ± 4
O=[N+]([O-])c1ccc(NC2CCNCC2)c(C(F)(F)F)c1	genotoxicity, SOS/umu test	TA1535/pSK1002	0.25 mg/mL, 4 h, without S9, full range	–	induction factor	0.5
Cc1cc(C(=O)NC(C)(C)COc2cccc3c2C(N)=NS(=O)(=O)N3)cc(C)n1	Ames test, initial	TA1537	50.0 µg/plate	relative to: solvent control	revertant ratio	1.2
CC(=O)N1CCC(C(=O)N2CCN3C(=O)c4cc(-c5ccccc5)ccc4NC(=O)C3C2)CC1 (stereo not drawn)	–	TA98	5000 µg/plate, together with: rat liver S9	relative to: vehicle	fold increase in revertants	1.1
O=[N+]([O-])c1ccc(N2CCC(NCCC(O)c3ccc(F)c4ccccc34)CC2)c(C(F)(F)F)c1 (stereo not drawn)	SOS/umu test	TA1535/pSK1002	0.002 mg/mL, 4 h, without S9, full range	–	survival	51.4%
